Results pooled from the literature.
Each numbered part is a random draw from the data of one study; scales do not carry over between parts. Positions count from the first letter of the parent shown.
UniProt O15294, sequence (whole entry, looked up): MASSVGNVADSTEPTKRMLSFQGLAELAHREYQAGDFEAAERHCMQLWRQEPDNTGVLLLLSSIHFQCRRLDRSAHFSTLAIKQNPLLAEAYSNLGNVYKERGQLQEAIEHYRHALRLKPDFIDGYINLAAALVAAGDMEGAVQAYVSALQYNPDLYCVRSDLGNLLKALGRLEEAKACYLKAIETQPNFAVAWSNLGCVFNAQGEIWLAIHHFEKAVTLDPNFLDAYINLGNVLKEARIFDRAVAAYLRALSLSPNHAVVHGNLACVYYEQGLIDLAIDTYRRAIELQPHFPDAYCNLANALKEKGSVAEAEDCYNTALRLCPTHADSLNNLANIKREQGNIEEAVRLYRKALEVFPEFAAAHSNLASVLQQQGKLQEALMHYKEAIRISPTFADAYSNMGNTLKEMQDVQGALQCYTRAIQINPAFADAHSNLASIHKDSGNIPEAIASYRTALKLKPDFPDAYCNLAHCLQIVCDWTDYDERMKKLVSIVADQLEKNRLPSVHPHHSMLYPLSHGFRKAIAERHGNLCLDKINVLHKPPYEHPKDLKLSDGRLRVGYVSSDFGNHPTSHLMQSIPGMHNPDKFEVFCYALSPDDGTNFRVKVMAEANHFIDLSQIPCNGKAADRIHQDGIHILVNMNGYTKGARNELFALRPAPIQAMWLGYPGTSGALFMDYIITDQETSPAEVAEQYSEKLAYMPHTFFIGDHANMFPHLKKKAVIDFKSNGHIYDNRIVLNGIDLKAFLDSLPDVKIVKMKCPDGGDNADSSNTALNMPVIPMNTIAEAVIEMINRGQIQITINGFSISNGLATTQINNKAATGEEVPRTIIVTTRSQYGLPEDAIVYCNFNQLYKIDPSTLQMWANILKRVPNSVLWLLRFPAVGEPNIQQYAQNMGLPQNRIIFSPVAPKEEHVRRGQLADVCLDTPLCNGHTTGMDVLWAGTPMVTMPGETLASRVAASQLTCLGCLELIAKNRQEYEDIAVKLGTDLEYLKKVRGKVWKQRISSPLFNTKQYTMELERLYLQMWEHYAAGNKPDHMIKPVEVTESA

Sample 1
Target: CCNE1, cyclin fold, Cln2 fusion (human)
Technique: yeast growth competition, sequencing
Medium: yeast
Setting: strong parent motif
Baseline: not given
Reading: higher = stronger binding
Endpoint: normalised enrichment score
Parent: BRCA2 docking peptide (human); PSIKRNLLNEFDR
S2H: 1.85
N6W: 1.07
E10T: 0.021
K4C: 3.59
N6Q: 0.31
R13E: 3.17
E10A: 0.49
K4F: 1.09

Sample 2
Target: CREB3, bZIP domain (human)
Technique: DHFR protein complementation
Medium: yeast
Setting: single substitutions, most at no-binding floor
Baseline: wild-type JUN-FOS pair
Reading: higher = stronger binding
Endpoint: binding fitness
Parent: JUN, bZIP domain (human); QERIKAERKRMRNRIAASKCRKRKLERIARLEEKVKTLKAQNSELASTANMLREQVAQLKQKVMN; partner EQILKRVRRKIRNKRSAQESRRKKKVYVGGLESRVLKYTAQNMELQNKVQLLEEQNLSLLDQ
A40V: -1.38 natural log
E44C: -1.16 natural log
A40L: -1.45 natural log
Q41W: -1.49 natural log
T37S: -1.27 natural log
L45C: -1.56 natural log
E32W: -1.45 natural log
L52S: -1.39 natural log

Sample 3
Target: TAR DNA-binding protein 43, full length, His tag (TARDBP, Homo sapiens, UniProt Q13148, residues 1-414)
Technique: RNA Bind-n-Seq
Form: RNA
Medium: in vitro
Concentration: 20 nM
Setting: 6-mer, flanks averaged, single round
With: 150 mM LiCl
Baseline: input library
Reading: higher = stronger binding
Endpoint: 6-mer enrichment (R)
AGAACG: 0.917
GACUAU: 0.889
AAGCCA: 0.841
GAAGAC: 0.849
AUCAUU: 0.931
GUCGCG: 1.06
GUCUAC: 0.852
CACGAC: 0.791

Other studies, line by line
RTFFPMYEIVIGMT — minimum log2 enrichment ratio (UDP-N-acetylglucosamine--peptide N-acetylglucosaminyltransferase 110 kDa subunit (OGT, Homo sapiens, UniProt O15294); binding, phage display NGS; peptide; panning round 2; baseline: input library): 2.88
